Measurements from different studies.
Every numbered part comes from another study and shows a few of its results, in no order.
Sequence of UniProt Q9C098 (whole entry, looked up): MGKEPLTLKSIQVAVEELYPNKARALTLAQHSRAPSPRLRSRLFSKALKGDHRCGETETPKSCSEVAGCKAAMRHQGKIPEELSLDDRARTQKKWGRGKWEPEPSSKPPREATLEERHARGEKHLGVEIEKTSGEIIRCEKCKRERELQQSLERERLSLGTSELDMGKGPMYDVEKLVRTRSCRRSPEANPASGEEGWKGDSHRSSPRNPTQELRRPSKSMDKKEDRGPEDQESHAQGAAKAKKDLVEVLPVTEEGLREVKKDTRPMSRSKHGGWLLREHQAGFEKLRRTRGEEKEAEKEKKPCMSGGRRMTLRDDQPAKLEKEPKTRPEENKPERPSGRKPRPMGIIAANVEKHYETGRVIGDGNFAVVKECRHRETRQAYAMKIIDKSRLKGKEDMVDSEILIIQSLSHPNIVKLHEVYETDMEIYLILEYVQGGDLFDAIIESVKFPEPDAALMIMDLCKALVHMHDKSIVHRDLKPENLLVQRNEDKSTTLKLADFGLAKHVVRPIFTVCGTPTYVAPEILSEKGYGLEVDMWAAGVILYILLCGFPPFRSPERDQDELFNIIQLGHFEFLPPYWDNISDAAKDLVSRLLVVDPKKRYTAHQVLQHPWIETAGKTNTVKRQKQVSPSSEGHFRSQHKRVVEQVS
Sequence of UniProt Q15569 (whole entry, looked up): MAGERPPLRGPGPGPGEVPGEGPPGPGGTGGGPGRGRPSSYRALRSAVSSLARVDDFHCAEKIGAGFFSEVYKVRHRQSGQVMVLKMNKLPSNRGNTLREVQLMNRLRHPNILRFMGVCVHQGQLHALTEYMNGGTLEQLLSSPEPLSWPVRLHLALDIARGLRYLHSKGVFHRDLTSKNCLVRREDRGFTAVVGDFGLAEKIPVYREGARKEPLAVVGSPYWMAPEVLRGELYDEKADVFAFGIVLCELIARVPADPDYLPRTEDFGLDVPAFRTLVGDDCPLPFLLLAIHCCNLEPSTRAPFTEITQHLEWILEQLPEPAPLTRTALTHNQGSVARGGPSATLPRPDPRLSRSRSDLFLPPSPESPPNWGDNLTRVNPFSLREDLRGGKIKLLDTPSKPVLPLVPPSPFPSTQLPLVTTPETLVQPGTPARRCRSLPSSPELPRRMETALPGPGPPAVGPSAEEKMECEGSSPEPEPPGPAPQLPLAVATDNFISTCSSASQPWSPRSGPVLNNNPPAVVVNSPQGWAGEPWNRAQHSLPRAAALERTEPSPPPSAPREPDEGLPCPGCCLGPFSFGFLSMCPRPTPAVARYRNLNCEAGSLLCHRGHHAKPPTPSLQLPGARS
Sequence of UniProt Q04912 (whole entry, looked up): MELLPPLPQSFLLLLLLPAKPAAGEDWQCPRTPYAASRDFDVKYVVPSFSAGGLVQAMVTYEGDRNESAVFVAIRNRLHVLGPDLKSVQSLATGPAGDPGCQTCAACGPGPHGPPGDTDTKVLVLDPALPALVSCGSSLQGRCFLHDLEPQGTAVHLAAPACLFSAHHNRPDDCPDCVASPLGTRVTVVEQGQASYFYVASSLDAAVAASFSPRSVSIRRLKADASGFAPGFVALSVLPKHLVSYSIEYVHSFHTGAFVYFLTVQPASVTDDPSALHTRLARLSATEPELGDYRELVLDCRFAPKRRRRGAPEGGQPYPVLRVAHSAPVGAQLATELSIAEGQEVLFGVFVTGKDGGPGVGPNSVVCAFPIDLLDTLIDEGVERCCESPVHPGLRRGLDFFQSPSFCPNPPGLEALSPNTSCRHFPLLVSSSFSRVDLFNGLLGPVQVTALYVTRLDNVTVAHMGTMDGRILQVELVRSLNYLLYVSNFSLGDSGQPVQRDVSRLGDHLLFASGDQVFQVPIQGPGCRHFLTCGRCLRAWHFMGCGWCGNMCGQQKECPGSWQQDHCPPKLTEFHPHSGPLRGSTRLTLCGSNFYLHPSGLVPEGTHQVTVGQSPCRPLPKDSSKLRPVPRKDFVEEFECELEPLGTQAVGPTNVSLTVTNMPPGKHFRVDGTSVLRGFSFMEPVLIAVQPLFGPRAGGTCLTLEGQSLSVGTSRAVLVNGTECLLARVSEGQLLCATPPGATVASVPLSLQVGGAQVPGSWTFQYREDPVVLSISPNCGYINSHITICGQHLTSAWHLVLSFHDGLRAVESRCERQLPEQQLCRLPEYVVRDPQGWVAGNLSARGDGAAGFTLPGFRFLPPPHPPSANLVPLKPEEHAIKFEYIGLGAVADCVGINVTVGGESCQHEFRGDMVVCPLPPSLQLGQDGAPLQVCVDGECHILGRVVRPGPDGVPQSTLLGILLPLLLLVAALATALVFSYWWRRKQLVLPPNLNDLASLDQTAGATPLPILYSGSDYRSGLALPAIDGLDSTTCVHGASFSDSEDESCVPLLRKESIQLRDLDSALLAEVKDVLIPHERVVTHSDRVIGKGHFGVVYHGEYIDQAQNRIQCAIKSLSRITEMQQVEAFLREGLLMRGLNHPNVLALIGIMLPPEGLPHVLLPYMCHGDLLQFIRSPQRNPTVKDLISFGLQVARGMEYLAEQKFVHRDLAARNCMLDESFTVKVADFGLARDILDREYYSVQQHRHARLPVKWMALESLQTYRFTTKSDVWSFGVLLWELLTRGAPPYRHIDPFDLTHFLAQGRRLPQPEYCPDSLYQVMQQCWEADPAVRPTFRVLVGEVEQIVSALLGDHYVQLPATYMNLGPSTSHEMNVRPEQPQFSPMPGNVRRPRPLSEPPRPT
Sequence of UniProt Q96PN8 (whole entry, looked up): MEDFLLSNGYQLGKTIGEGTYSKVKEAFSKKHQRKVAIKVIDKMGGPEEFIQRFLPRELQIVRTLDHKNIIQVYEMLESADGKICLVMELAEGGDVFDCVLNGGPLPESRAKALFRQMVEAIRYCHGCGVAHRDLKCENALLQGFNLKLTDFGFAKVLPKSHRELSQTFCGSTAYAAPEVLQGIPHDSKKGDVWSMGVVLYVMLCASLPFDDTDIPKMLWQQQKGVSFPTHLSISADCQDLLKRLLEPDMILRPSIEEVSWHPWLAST
Sequence of UniProt P11362 (whole entry, looked up): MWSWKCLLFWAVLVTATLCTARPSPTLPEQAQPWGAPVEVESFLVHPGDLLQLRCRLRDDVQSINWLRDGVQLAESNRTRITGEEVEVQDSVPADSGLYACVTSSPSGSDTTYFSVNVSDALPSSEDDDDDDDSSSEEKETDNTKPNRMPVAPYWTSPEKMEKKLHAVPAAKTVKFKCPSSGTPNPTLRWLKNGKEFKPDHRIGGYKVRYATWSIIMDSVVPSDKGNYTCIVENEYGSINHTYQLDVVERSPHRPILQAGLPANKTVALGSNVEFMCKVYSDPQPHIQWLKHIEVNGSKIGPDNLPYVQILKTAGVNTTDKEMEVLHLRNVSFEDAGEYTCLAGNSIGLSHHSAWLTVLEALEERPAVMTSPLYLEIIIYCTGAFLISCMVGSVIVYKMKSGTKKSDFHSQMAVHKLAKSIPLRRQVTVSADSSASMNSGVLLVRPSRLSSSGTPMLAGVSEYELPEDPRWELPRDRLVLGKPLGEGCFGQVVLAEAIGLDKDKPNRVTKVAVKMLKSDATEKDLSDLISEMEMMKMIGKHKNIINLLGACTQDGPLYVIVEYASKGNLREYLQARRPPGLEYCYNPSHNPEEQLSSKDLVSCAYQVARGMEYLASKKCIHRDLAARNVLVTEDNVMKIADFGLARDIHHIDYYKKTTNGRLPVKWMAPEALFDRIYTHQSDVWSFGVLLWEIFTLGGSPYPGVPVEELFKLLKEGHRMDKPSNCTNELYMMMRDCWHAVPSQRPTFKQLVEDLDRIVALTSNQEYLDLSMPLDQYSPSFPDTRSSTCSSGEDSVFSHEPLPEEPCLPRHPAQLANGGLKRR
Sequence of UniProt Q8WTQ7 (whole entry, looked up): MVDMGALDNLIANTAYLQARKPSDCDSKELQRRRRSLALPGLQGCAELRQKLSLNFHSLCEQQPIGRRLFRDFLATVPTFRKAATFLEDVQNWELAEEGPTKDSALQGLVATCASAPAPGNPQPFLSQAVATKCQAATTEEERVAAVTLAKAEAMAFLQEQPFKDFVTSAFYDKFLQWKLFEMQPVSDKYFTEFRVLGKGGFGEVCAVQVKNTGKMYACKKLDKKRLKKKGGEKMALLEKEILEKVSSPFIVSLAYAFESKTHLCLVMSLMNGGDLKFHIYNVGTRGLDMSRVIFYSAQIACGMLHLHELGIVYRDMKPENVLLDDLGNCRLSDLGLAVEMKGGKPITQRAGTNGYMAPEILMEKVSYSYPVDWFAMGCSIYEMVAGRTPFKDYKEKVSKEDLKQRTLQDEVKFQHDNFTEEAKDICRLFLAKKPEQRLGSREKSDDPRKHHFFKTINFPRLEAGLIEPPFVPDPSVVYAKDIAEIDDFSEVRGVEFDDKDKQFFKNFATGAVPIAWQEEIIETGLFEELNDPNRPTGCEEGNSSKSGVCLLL

Set 1
Compound: Fc1ccc(-c2nc3n(c2-c2ccncc2)CCS3)cc1
Effect on: enzyme activity
Action: inhibitor
Concentration: 0.5 µM
Baseline: control
| target | remaining activity |
| --- | --- |
| Serine/threonine-protein kinase ULK2 (ULK2, Homo sapiens, UniProt Q8IYT8) | 106% |
| Fibroblast growth factor receptor 3 (FGFR3, Homo sapiens, UniProt P22607) | 91.8% |
| Tyrosine-protein kinase JAK3 (JAK3, Homo sapiens, UniProt P52333) | 94.3% |
| Fibroblast growth factor receptor 1 (FGFR1, Homo sapiens, UniProt P11362) | 93.4% |
| Serine/threonine-protein kinase ULK3 (ULK3, Homo sapiens, UniProt Q6PHR2) | 79.2% |
| Serine/threonine-protein kinase TBK1 (TBK1, Homo sapiens, UniProt Q9UHD2) | 90.6% |
| Rhodopsin kinase GRK7 (GRK7, Homo sapiens, UniProt Q8WTQ7) | 104% |
| Casein kinase I isoform gamma-3 (CSNK1G3, Homo sapiens, UniProt Q9Y6M4) | 97.9% |
| Macrophage-stimulating protein receptor (MST1R, Homo sapiens, UniProt Q04912) | 97.3% |
| Serine/threonine-protein kinase Nek1 (NEK1, Homo sapiens, UniProt Q96PY6) | 103% |
| Mitogen-activated protein kinase kinase kinase 14 (MAP3K14, Homo sapiens, UniProt Q99558) | 103% |
| Tyrosine-protein kinase Lck (LCK, Homo sapiens, UniProt P06239) | 96.2% |
| Mitogen-activated protein kinase 3 (MAPK3, Homo sapiens, UniProt P27361) | 103% |
| Ephrin type-A receptor 3 (EPHA3, Homo sapiens, UniProt P29320) | 112% |

Set 2
Target: Eukaryotic initiation factor 4A-I (EIF4A1, Homo sapiens, UniProt P60842, residues 1-406, full length assumed)
Sequence of UniProt P60842 (whole entry, looked up): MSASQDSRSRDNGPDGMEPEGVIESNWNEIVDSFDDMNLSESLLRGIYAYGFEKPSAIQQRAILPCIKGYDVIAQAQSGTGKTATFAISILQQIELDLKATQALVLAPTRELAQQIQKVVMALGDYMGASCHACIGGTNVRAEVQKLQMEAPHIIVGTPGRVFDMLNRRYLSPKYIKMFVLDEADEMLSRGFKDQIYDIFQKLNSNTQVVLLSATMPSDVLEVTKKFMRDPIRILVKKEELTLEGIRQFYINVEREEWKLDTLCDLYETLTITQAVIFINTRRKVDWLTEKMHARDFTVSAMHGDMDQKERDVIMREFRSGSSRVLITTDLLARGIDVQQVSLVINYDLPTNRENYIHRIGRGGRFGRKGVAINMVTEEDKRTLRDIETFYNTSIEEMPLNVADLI
Technique: RNA Bind-n-Seq
Form: RNA
Matrix: in vitro
Concentration: 90 pmol
Setting: 4-mer, random 30-nt RNA, single round
Added: 3 µM DMDA-PatA, 2 mM ADP, 2 mM phosphate
Baseline: input library
Direction: higher = stronger binding
| Strand | 4-mer enrichment |
| --- | --- |
| AUUC | 0.691 fold |
| CGAC | 0.825 fold |
| UGGU | 1.23 fold |
| GCUC | 0.51 fold |
| AUGC | 0.934 fold |
| UGGC | 1.08 fold |
| UGGA | 1.11 fold |
| CUUU | 0.698 fold |

Set 3
Target: UBE2O UBC core domain (UniProt Q9C0C9)
Technique: yeast two-hybrid
Matrix: yeast
Setting: mostly zero background
Baseline: not given
Direction: higher = stronger interaction
B1: ARK2C RING domain (UniProt Q6ZSG1); chain EGEESDTDEKCTICLSMLEDGEDVRRLPCMHLFHQLCVDQWLAMSKKCPICRVDIETQLGAD
B2: PHF21A RING domain (UniProt Q96BD5); chain SPTSTDGDIHEDFCSVCRKSGQLLMCDTCSRVYHLDCLDPPLKTIPKGMWICPRCQDQMLKKEEAIPW
B3: MID1 RING domain (UniProt O15344); chain METLESELTCPICLELFEDPLLLPCAHSLCFNCAHRILVSHCATNESVESITAFQCPTCRHVITLSQRGL
B4: ZNF598 RING domain (UniProt Q86UK7); chain AAAPERGGGSCVLCCGDLEATALGRCDHPVCYRCSTKMRVLCEQRYCAVCREELRQVVFGK
Residues (chain): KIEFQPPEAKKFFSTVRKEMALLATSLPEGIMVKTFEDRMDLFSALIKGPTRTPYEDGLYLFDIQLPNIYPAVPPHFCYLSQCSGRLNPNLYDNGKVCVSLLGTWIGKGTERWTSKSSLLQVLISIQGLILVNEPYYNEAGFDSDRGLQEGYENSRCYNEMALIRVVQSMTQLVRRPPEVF
| Sequence | lacZ reporter activity |
| --- | --- |
| B1 (ARK2C RING domain) | 0 |
| DAIPSLSECQCGICMEILVEPVTLPCNHTLCKPCFQSTVEKASLCCPFCRRRVSSWTRYH (RNF168 RING domain (UniProt Q8IYW5)) | 0 |
| B2 (PHF21A RING domain) | 0 |
| QLRRLQEERTCKVCMDKEVSIVFIPCGHLVVCKDCAPSLRKCPICRSTIKGTVRTF (BIRC3 RING domain (UniProt Q13489)) | 0 |
| FPEHFVKSISCQICEHILADPVETNCKHVFCRVCILRCLKVMGSYCPSCRYPCFPTDLES (RAG1 RING domain (UniProt P15918)) | 0 |
| QLRRLQEERTCKVCMDKEVSVVFIPCGHLVVCQECAPSLRKCPICRGIIKGTVRTF (BIRC2 RING domain (UniProt Q13490)) | 0 |
| B3 (MID1 RING domain) | 0 |
| B4 (ZNF598 RING domain) | 0 |

Set 4
SMILES: CCC(=O)N[C@@H]1CC[C@H](C(=O)N(C)c2ccc(-c3nc4ccccc4o3)cc2)C1
Technique: competition with immobilised ligand
Concentration: 1 µM
| target | effect on | remaining binding [%] |
| --- | --- | --- |
| Serine/threonine-protein kinase DCLK3 (DCLK3, Homo sapiens, UniProt Q9C098) | cell-free assay | 100 |
| Hormonally up-regulated neu tumor-associated kinase (HUNK, Homo sapiens, UniProt P57058) | cell-free assay | 100 |
| Bone morphogenetic protein receptor type-1A (BMPR1A, Homo sapiens, UniProt P36894) | binding | 96 |
| Dual specificity testis-specific protein kinase 1 (TESK1, Homo sapiens, UniProt Q15569) | cell-free assay | 75 |
| Testis-specific serine/threonine-protein kinase 3 (TSSK3, Homo sapiens, UniProt Q96PN8) | cell-free assay | 97 |

Repeated from above (set 4):
| target | effect on | remaining binding [%] |
| --- | --- | --- |
| Bone morphogenetic protein receptor type-1A (BMPR1A, Homo sapiens, UniProt P36894) | binding | 96 |
| Dual specificity testis-specific protein kinase 1 (TESK1, Homo sapiens, UniProt Q15569) | cell-free assay | 75 |
| Testis-specific serine/threonine-protein kinase 3 (TSSK3, Homo sapiens, UniProt Q96PN8) | cell-free assay | 97 |
| Hormonally up-regulated neu tumor-associated kinase (HUNK, Homo sapiens, UniProt P57058) | cell-free assay | 100 |
| Serine/threonine-protein kinase DCLK3 (DCLK3, Homo sapiens, UniProt Q9C098) | cell-free assay | 100 |
